Measured values gathered from unrelated publications.
Numbered parts are unrelated; each lists some results of a single study. Positions count from the first letter of the parent shown.
UniProt Q9C0B0, sequence (30-357, looked up): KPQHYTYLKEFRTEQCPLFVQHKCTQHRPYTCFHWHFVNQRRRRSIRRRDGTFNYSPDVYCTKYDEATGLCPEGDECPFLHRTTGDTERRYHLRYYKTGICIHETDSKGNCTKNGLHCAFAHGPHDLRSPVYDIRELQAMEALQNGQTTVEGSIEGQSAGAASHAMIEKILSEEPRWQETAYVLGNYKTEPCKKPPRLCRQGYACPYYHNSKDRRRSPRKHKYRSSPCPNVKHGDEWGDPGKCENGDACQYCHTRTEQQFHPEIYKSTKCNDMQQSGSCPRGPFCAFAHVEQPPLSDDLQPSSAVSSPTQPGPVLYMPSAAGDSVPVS

Set 1 — method: protein-binding microarray; form: double-stranded DNA, one strand shown; sample: in vitro; tested at: 250 nM; setting: 60-bp whole probe; with: salmon DNA 0.4 mg/ml; baseline: random background probes; direction: higher = stronger binding; shared flanks, not repeated: GCCTAGCAC … GTCTTGATTCGCTTGACGCTGCTG
Target: Interferon regulatory factor 7, full length, phosphomimetic (IRF7, Homo sapiens, UniProt Q92985, residues 1-503, S101K/S471D/S472D/S475D/S476D/S477D/S483D/S484D/S487D)
UniProt Q92985, sequence (whole entry, unmodified, looked up): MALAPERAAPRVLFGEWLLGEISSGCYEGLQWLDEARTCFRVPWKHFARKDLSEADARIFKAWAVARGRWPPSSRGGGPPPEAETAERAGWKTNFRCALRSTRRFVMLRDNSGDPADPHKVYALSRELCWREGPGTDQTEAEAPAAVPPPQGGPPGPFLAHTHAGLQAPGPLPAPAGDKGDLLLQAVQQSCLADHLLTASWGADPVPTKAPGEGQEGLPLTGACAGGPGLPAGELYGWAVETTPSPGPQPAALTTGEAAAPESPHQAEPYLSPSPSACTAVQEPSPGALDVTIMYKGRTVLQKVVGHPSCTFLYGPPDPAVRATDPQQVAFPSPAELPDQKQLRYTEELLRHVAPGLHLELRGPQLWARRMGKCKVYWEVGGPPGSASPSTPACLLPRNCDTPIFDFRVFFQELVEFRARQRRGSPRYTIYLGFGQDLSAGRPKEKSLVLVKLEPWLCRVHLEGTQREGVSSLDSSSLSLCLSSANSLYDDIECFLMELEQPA
Oligonucleotide	log fluorescence [z-score]
TCAAATTTTGCTTCTAGACTGTGCTAG	-0.139
GTTTGTCCCTATTTAAGATAGTGCTAG	5.17
TCACCTATCCAAGTTCCCACTGTGCTA	0.885
TTAGGACTGGGGTTCCGGTTAGTGCTA	0.842
GACGGGTTCGGTCTCGGGACGTGCTAG	0.892
TCACATATGCTTTTTAGACTGTGCTAG	0.164
ATTGTTTCCTCTTTCACTGCGTGCTAG	3.48
GACGAACTGAGTTTGGAGACGTGCTAG	-0.476
TCATTATTTATTTTTACACTGTGCTAG	0.968
TGAACTTCGGCCTCTAGGTTTGTGCTA	-0.598
GACCGTATCGACACTGGGGACGTGCTA	0.305
TCATCTCTCAAAAGTCACACTGTGCTA	0.684
GACGATTTCGGGATTCGAGACGTGCTA	1.12
GACGGACTGGGGTTTCGGGCCGTGCTA	-0.109
TTAGGTATCGGTCGCGGTTAGTGCTAG	0.503
TTAGGTCTCCCTATCCTTTAGTGCTAG	0.324
TACGGTTTCGGACTGGGGACGTGCTAG	4.16
TTAGATTTCAGTCACGATTAGTGCTAG	0.706
GCCGATCTCAGTATCGAGACGTGCTAG	0.34
GACGATTTCAGTCCCGAGACGTGCTAG	0.122
TACGGTATCCTTCTCCTGACGTGCTAG	0.396
GACGGCCTCCTTATCCTGACGTGCTAG	-0.265
TTAGGACTGGGGTATCGGTTGGTGCTA	0.213
GAAGACTTTGGTTTGTACACGTGCTAG	-0.231
CATATTCTCTTCTTGCATCTGTGCTAG	2.28

Set 2 — target: CREB3L3, bZIP domain (human); method: DHFR protein complementation; sample: yeast; baseline: wild-type JUN-FOS pair; direction: higher = stronger binding
Setting: single substitutions, most at no-binding floor
Parent: JUN, bZIP domain (human); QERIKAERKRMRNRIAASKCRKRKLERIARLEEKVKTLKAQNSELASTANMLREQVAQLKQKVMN; partner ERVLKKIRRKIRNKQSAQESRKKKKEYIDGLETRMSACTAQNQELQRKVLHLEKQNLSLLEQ
Substitution	binding fitness [natural log]
A29I	-1.48
K34W	-1.41
K39Y	-1.48
A49W	-1.47
K36S	-1.34
R53P	-1.51
R53S	-1.27
A49L	-1.43
I28T	-1.54
Q55V	-1.52
R30E	-1.39
V35P	-1.43
A40H	-1.53
L45T	-1.51
N42L	-1.49
V35F	-1.37
L38P	-1.48
K34H	-1.42
A46Y	-1.18

Set 3 — method: RNA Bind-n-Seq; form: RNA; sample: in vitro; tested at: 200 nM; setting: whole 134-nt RNA, ends assumed; with: 150 mM KCl; baseline: input library; direction: higher = stronger binding
Target: Fragile X messenger ribonucleoprotein 1, C-terminal low-complexity region (Fmr1, Mus musculus, UniProt P35922)
Shared flanks, not repeated: GGGAGUUCUACAGUCCGACGAUC … UGGAAUUCUCGGGUGUCAAGG
Oligonucleotide	log2 enrichment
ACCAUGCAGGUGGGCAUCUUUGGGAAGUAAAGCAAGGGGGGGAUAGGGAGGGGGGUAACACUUUGGGAACAGGUGGUCCCAGGUCGUUUC	0.932
UCCUGUGCUACACAUCGUAUGUACCGAAUCGGGGCCCCCGGGGCCCCCGGGGCCCCCGGAAAGUAUUAUGUUACGCCGUUCGGAUCUGCA	-0.0567
UAUUAAUUUGAUAUAUUUAUUAUGAUUUGUAGAGGACGUCGGUGAUGAAGGAGAAGAAGAAAAAGAAUUCAUUUCCUAUAACAUCAACAU	-2.03
UGGCCCUGGUGGCAUGCGGGGAGGAAGAGGUGGCCCCAUGGAUCGUGGUGGUCCCGGUGGAAUGUUCAGAGGUGGCCGUGGUGGAGACAG	0.0309
AGUCCUGUGCUACACAUCGUAUGUACCGAAUCGGAAAAGGGGAAAAGGGGAAAAGGGGAAAGUAUUAUGUUACGCCGUUCGGAUCUGCAC	0.262
AGAGAAUAAGAAUUCAGCUGACAGGAGGCCUCUAUCCUGUCCCUCCACCCCACCCUCCACCUCAAUCCCCUCCCAUCUUCCCCAGACCUA	0.592
UUUCUCUCACCAGGUACCAGGUCAUCAGUACACCAUCUGAUAUUUUCAUGGUGAUGGAAUAUGUCUCAGGAGGAGAGCUAUUUGAUUAUA	-0.983
UUCUGAGAAGGUUGCGCAGCAGCUGUGCCCGGCAGUCUAGAGGCGCAGAAGAGGAAGCCAUCGCCUGGCCCCGGCUCUCUGGACCUUGUC	-0.968
GCAGGAAGUAAAAACAAAUGGAAAUGCUUCGGAUAGUGGCAGGGGUGGGGGUUGCUAAGGAAAGGGAAAGAUGGGAGUGGGUAAAGAGUU	0.119
CACAGACAACACGCACCCACACAGACACAGAGGGAAGGAGUUGGGAUGGGGACAGGGUGCACAGCAGGGCGGGGUAGGACCCCAGCCCCU	1.17
UAACUUUAGAGGAGGAUCUGAUGGAUAUGGCAGUGGACGUGGAUUUGGGGAUGGCUAUAAUGGGUAUGGAGGAGGACCUCGAGGUGGCAA	-0.00891
CCAGGAAGUAAAAACAAAUGGAAAUGCUUCGGAUAGUGGCAGGGGUGGGGGUUGCUAAGGAAAGGGUGGGAUGGGAGUGGGUAAAGAGUU	0.509
AGUCCUGUGCUACACAUCGUAUGUACCGAAUCGGGAAAGGGAAAAAAAGGGAAAGGGAAAGUAUUAUGUUACGCCGUUCGGAUCUGCACU	-0.0773
UGGGAGGUGGAUUUUGUUUAUUUUUUUAGCUCAUUUCCAGGGGUGGGAAUUUUUCUUUAAUAUGUGUCAUGAAUAAAGUUGUUUUUGAAA	0.315

Set 4 — target: CCNA1, cyclin fold, Cln2 fusion (human); method: yeast growth competition, sequencing; sample: yeast; setting: weak parent motif; baseline: not given; direction: higher = stronger binding
Parent: GMNC docking peptide (human); KNAKRNLSSEFAN
Substitution	normalised enrichment score
F11P	-0.459
A12N	1.43
N6S	0.339
A3C	0.633
F11M	0.535
R5L	0.0415
K4F	0.00276
N2P	0.708
A12T	0.713
L7P	-0.0753
R5N	0.269
A12W	0.525
K4W	-0.00565
K4V	0.174
A12E	0.753
S9P	0.258
K4T	-0.0209
S9K	0.582
S9I	0.836
S8G	0.616
K4S	0.37
F11R	-0.128
E10N	0.151
S8V	0.465
S8K	0.169

Set 5 — method: universal PBM; form: double-stranded DNA, one strand shown; sample: in vitro; tested at: 600 nM; direction: higher = stronger binding
Target: Sal-like protein 4, full length isoform A (SALL4, Homo sapiens, UniProt Q9UJQ4, residues 1-1053)
UniProt Q9UJQ4, sequence (whole entry, looked up): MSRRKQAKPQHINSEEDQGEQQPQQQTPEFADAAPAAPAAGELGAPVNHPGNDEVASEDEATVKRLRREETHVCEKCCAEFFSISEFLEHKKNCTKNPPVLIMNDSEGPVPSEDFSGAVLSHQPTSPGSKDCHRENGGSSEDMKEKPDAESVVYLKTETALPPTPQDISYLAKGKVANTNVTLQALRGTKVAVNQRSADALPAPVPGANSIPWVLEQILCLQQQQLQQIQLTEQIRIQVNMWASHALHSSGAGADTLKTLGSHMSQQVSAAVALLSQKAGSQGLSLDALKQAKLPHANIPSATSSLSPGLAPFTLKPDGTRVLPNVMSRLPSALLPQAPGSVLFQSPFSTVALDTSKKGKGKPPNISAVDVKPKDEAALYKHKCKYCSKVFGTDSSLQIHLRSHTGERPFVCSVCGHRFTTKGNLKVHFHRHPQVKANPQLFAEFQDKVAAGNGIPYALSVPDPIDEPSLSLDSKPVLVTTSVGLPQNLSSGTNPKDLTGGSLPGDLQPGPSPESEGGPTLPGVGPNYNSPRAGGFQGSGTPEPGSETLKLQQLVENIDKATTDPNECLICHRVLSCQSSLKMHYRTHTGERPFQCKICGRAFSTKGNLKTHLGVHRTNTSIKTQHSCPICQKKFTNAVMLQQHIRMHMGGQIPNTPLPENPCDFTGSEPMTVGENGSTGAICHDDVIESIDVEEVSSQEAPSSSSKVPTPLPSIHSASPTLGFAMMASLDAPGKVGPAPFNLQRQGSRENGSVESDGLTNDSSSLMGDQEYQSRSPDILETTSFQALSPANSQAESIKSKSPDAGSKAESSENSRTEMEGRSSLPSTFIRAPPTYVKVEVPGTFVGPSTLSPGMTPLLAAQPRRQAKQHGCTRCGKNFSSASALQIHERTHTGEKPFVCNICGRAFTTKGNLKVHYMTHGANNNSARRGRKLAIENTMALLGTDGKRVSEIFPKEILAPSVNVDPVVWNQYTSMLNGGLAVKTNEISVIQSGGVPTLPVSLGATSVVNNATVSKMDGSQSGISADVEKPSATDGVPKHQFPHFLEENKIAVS
Setting: 8-mer, flanks averaged, mean of replicates
Oligonucleotide	E-score
CTAGGACA	0.0736
AGTGACAG	-0.0205
ACACATCC	-0.143
ACAGTTCC	-0.0389
CTTCTGCA	0.0485
ATAATGAA	0.393
CAGAAGCA	0.0725
GTTCGCCA	-0.0415
AACTGGCA	-0.0949
ATGTTATG	0.338
GCGTCGGA	-0.267
ACCAGTAG	-0.0798
TTGGCCAA	-0.141
ACAAATTG	0.168
CTTGAGCA	-0.0471
CGTCCGCC	-0.317
ATAGTTCA	0.225
TTCTGCAA	0.183
AAATGCAT	0.206
ACCGTCAA	0.0285
ATTCGGTG	0.00169
AGTTTCGA	-0.0264
GGCGGACC	-0.393
CATACCGA	0.0989
GAGTCCGC	-0.331

Single results of other studies
Substance	target	test	system	setting	how to read	endpoint	value
PhoQ, residues 284 288 289 292 302 303 SLKLQV	PhoP, residues 12 14 15 18 19 QYFSL (Escherichia coli, UniProt P23836)	Sort-seq, measured: YFP reporter	E. coli	PhoQ-PhoP variant library, with: 10 µM Mg2+	baseline: high Mg2+ state, higher = stronger signaling	fold induction	7.5
GGGAGUUCUACAGUCCGACGAUCUUGAGAACAGCUCUCCAAACCGGAACCGCCGUAAAAAAAAUAAGCAAAAUGAUAUUUGUACCGAAAAAACAGAAGUUAAAUCAUGUAAAGUAAAUGCUGCCAACCUUCCAGGUCCUAAAGCAACAGAGGAUUGAGCAUCA	RING finger protein unkempt homolog, zinc fingers 1-6, SBP tag (UNK, Homo sapiens, UniProt Q9C0B0, residues 30-357)	RNA Bind-n-Seq	RNA, in vitro	100 nM, RNA with constant flanks, ends assumed	baseline: input RNA pool, higher = stronger binding	bound/input enrichment	0.471 ratio

Repeated from above (set 4):
Substitution	normalised enrichment score
L7P	-0.0753
R5N	0.269
A12W	0.525
K4W	-0.00565
K4V	0.174
A12E	0.753
S9P	0.258
K4T	-0.0209
